Assay results pooled from the literature.
Lines come from different studies, so protocols differ. In brackets after ≈: the same amount, converted by molar mass.

For `CC[C@H](C)[C@H](NC(=O)[C@H](C)NC(=O)[C@H](CCCCN)NC(=O)[C@H](CC(C)C)NC(=O)[C@H](C)NC(=O)[C@@H](NC(=O)[C@H](Cc1c[nH]cn1)NC(=O)[C@H](CC(C)C)NC(=O)[C@@H](NC(=O)[C@@H](NC(=O)[C@H](CCCCN)NC(=O)[C@H](C)NC(=O)[C@H](C)NC(=O)[C@H](CO)NC(=O)[C@H](CCCCN)NC(=O)[C@H](Cc1ccccc1)NC(=O)[C@@H](NC(=O)[C@H](CCCCN)NC(=O)[C@H](CC(C)C)NC(=O)[C@H](Cc1ccccc1)NC(=O)[C@H](CO)NC(=O)[C@H](CCCCN)NC(=O)[C@H](Cc1c[nH]c2ccccc12)NC(=O)[C@H](CCCCN)NC(C)=O)[C@@H](C)O)[C@@H](C)O)C(C)C)[C@@H](C)O)C(=O)N[C@@H](CO)C(=O)N[C@@H](CO)C(N)=O`, the MBC50 was 2 µg/mL (≈ 0.682 µM) (Acinetobacter baumannii; ATCC 19606).
Under “EFS ratio (T/C)”, `CN1CCN(S(=O)(=O)c2cc([N+](=O)[O-])ccc2N(CCOS(C)(=O)=O)CCOS(C)(=O)=O)CC1` is recorded as > 29.1 (NSG mice, sample BE PDX; intraperitoneal, 25 mg/kg weekly x3; reference: treated over vehicle).
For `C[C@H](C(=O)N[C@H]1COc2ccccc2[C@@H]1S(C)(=O)=O)c1ccc(F)cc1`, the inhibition was 0% (adrenergic alpha2 receptor, rat; binding; 10 µM, Eurofins selectivity panel).
For `COc1c(CCC[P+](c2ccccc2)(c2ccccc2)c2ccccc2)cc2c(c1OC)OCO2.[I-]`, the GI50 was -6.51 log M (UACC-257; SRB).
`CCCCC1(CCCC)CN(c2ccccc2)c2cc(SC)c(OCC(=O)N[C@@H](C(=O)NCC(=O)O)c3ccccc3)cc2S(=O)(=O)C1` has a serum HDL-C of 52.6 mg/dL (refers to: HDL cholesterol; human, serum; 20 mg once daily, day 9).
`COc1cc(CCC[P+](c2ccccc2)(c2ccccc2)c2ccccc2)c(OC)c2c1OCO2.[I-]` has an LC50 of -4.25 log M (OVCAR-3; SRB).
`CC[C@H](C)[C@@H]1NC(=O)[C@@H]2CCCN2C(=O)[C@H](CC(C)C)NC(=O)[C@H](CC(C)C)NC(=O)CNC(=O)[C@@H](NC(=O)[C@@H](NC(=O)[C@H](CC(=O)O)NC(=O)CNC(=O)[C@@H](NC(=O)[C@H](C)NC(=O)CNC(=O)[C@H](CCCCN)NC(=O)[C@H](CC(C)C)NC(=O)[C@H](CC(C)C)NC(=O)[C@H](CCCCN)NC(=O)CNC(=O)[C@@H](NC(=O)[C@@H](N)CC(C)C)C(C)C)C(C)C)C(C)C)CSSC[C@@H](C(=O)O)NC1=O` — result for “log2 fold change”: -1.85 (RNA-seq, refers to: Zbp1; mouse, traumatic brain injury model, frontal cortex and hippocampus; dose not given; reference: TBI alone).
`c1ccc(C(NCCNC(c2ccccc2)c2ccccc2)c2ccccc2)cc1` has an inhibition of 70% (sigma receptor, guinea pig; binding; 10 µM, Eurofins selectivity panel).

A few entries again:
For `C[C@H](C(=O)N[C@H]1COc2ccccc2[C@@H]1S(C)(=O)=O)c1ccc(F)cc1`, the inhibition was 0% (adrenergic alpha2 receptor, rat; binding; 10 µM, Eurofins selectivity panel).
